Experimental data gathered from unrelated publications.
Compare with care: the assays were run in different laboratories. Several values in a cell are separate wells, animals, samples, runs or records. Numbers after ± are the reported error.

COC(=O)c1cc(NC2=NC(=O)C(=Cc3ccc(N(C)C)cc3)S2)ccc1OC(C)=O
metabolite level (MCF7; GC-MS, measured: Oleic acid; 1 µM; relative to: DMSO): 0.25 fold change

CNC(NN=Cc1ccc([N+](=O)[O-])o1)=[S+][Au-][Cl]
cell fraction ANV+/PI− (CAKI-1; annexin V/PI flow cytometry; 15 µM, 72 h): 30.4 ± 0.5%

CCn1nc(Cl)c2c1-c1cnc(N)c(c1)O[C@H](C)c1cc(F)ccc1-c1nn(C)cc1C2
Emax (KARPAS-299 (NPM1-ALK); cell viability): 80.5%

CC1(C)C[C@@H](Nc2cccc(-c3sc(C(=O)O)c(OCC(=O)O)c3Cl)c2)CCN1S(=O)(=O)Cc1cccc(NC(=O)CN2CCC(c3ccc4c(c3)oc(=O)n4C3CCC(=O)NC3=O)CC2)c1 (stereo partly shown)
fold change (B16-F10; HTRF, measured: phospho-STAT1 Tyr701; 0.37 µM, added: IFN-γ; relative to: DMSO): 4.19 and 4.09 and 4.56 and 4.5 and 4.36 and 4.42

C=Cc1c(C)c2cc3nc(c(CC(=O)OCCOCCOCCOC)c4[nH]c(cc5nc(cc1[nH]2)C(C)=C5CC)c(C)c4C(=O)O)[C@@H](CCC(=O)OCCOCCOCCOC)[C@@H]3C
reduction of phototoxicity (OVCAR-5; MTT; 0.1 µM, added: sodium azide 2 mM; relative to: compound alone): ~25%

C=CC(=O)N1[C@H](c2ccc3c(c2)OCO3)c2[nH]c3ccccc3c2C[C@@H]1C(=O)NC
neuron degeneration (rat DRG neurons; 0.004572 µM, 48 h, added: vincristine 40 nM): 79.9% and 82.3%

O=C(Nc1nnc2c1c(-c1ccc(Cl)cc1)nc1sc(=Cc3ccco3)c(=O)n12)c1ccccc1 (mixture of isomers)
cell growth (KM12; SRB; 10 µM, NCI60 single-dose screen, colon cancer; relative to: untreated): 39.9%

CCN(CC)CC(=O)Nc1cccc(-n2cc(-c3ccc4ccc(-c5cn(-c6cccc(NC(=O)CN(CC)CC)c6)nn5)cc4c3)nn2)c1
fold regulation (RCC4; PCR angiogenesis array, measured: TGFB2; 5 x IC50, 4 h, normoxia; relative to: untreated): -1.28 fold

Cc1cnc(NC(=O)c2cccc([C@@H]3C[C@H]3NC3CCC3)c2)s1
relative growth (SET-2; cell growth, CellTiter-Glo; 0.1 µM, 7 d; relative to: vehicle): 103% and 102% and 98.5%

COC(=O)[C@@]1(C(C)C)C=C(C(=O)Nc2cccc(C(=O)Nc3ccc(Nc4nccc(-c5cccnc5)n4)c(C)c3)c2)C(=O)CC1
reporter activity (HEK293 AP1 reporter; AP1 reporter gene, inhibitor; 1 µM, 6 h, unit not given, added: PMA; relative to: PMA alone): 0.815

CC(C)c1ccc(N(C)c2ccc3c(c2)OCC[C@H]3CNc2cnccc2C(=O)O)cc1
IC50 (DMS-273; cell viability, CellTiter-Glo; 7 days): 0.0222 µM

CCN(C(=O)c1cc(F)ccc1Oc1nncnc1N1CCC2(C1)CN([C@H](CCCN(C)CCOC)C(C)C)C2)C(C)C
GI50 (CAKI-1; cell growth or viability; 7 days): > 10 µM

CN1CCCNC(=O)c2cccc(c2)C(=O)NCCCN(C)CCCNc2cccc3c2C(=O)c2cccc(c2C3=O)NCCC1
log2 fold change (SAS; RNA-Seq, measured: MST1R mRNA; 1 µM, 6 h; relative to: untreated cells): -1.02

COc1cccc(OC)c1-c1cc(C(=O)NC2(C(=O)O)C3CC4CC(C3)CC2C4)nn1-c1ccc(C(=O)NCCNC(=O)[C@H](CCCCNC(=O)[C@H](CC(C)C)NC(=O)C2OC2C(=O)O)NC(=O)CN2CCN(CC(=O)[O-])CCN(CC(=O)[O-])CCN(CC(=O)[O-])CC2)cc1C(C)C.[177Lu+3] (mixture of isomers)
surface-bound fraction (HT-29; concentration not given, 60 min; relative to: added activity): 1.26 ± 0.17%

NCC(=O)Nc1ccc(Sc2ccc3c(/C=C/c4ccccn4)n[nH]c3c2)cc1
GI50 (Ba/F3 TEL-VEGFR2; cell growth, CCK-8): 0.19 µM

Cn1ncc2cc(-c3cncc(Cl)c3N3CCC4(CCNC4=O)CC3)ccc21
log2 fold change (LS174T; gene expression, microarray, measured: IL17C mRNA; concentration not given, 4 h; relative to: untreated cells): -2.31

Fc1ccc(Nc2nc(NC3CCCCC3)c3cc(C(F)(F)F)ccc3n2)cc1F
Imax (transfected HEK293 cells; β-arrestin2 recruitment, negative allosteric modulator, BRET; 30 min pre-incubation, β1AR ECL1/2 chimera, added: isoproterenol 1 µM; relative to: isoproterenol alone): -0.4%

CCC(=CCc1c(O)cc2c(c1O)C(=O)CC(c1ccc(O)cc1)O2)CC (stereo not shown)
active caspase-3 level (HeLa; flow cytometry; 24 µM, 48 h; relative to: DMSO): 4 fold

CCCCCCCCN(CCC(=O)Nc1ccccc1)C(=O)c1ccc(C#N)cc1
viability (progeroid mouse fibroblasts, Lmna G609G/G609G; MTT; 2 µM, 72 h; relative to: vehicle-treated wild type): 56 ± 4%

CCCC[C@H](N)C(=O)N[C@H]1CSCc2ccc(cc2)-c2ccc(cc2)CSC[C@@H](C(=O)N[C@H](C(N)=O)[C@@H](C)O)NC(=O)[C@H](CCCCN)NC(=O)[C@H](CCCCN)NC(=O)[C@H](CCCCN)NC(=O)[C@H](Cc2ccc(O)cc2)NC(=O)[C@H](CC(N)=O)NC(=O)[C@H](CC(C)C)NC1=O
inhibition (U2OS expressing KRAS G12D; KRAS G12D multimerisation, split luciferase clustering; 50 µM, 24 h): ~50%

Cc1ncsc1-c1ccc(C(C)NC(=O)C2CC(O)CN2C(=O)C(NC(=O)CCCCCCCCCCN2CCCC(Nc3ncc(Cl)c(Nc4ccccc4S(=O)(=O)C(C)C)n3)C2)C(C)(C)C)cc1 (stereo not shown)
log2 fold change (22Rv1; RNA-seq, measured: ZEB1 mRNA; concentration not given; relative to: DMSO): -1.98

CO[C@@H]1[C@@H](OC(N)=O)[C@@H](O)[C@H](Oc2ccc3c(O)c(NC(=O)c4ccc(O)c(CC=C(C)C)c4)c(=O)oc3c2C)OC1(C)C
colony count (HCT-116 BRCA2-/-; 200 µM, replicate 2): 1.55

Fc1ccc(Nc2nc(NC3CCCCC3)c3ccccc3n2)cc1F
Imax (transfected HEK293 cells; β-arrestin2 recruitment, negative allosteric modulator, BRET; 30 min pre-incubation, β1AR ECL1/2 chimera, added: isoproterenol 1 µM; relative to: isoproterenol alone): -13%

COc1ccccc1-c1ccncc1C(=O)Nc1nnc(OCc2ccc(Cl)cc2)s1
colony survival (PEO1 BRCA2-mutant ovarian cancer; 0.5 µM, added: olaparib 0.125 µM): 21.5% and 0%

COc1cc(N2CCN(C(=O)CCOCCNC(=O)[C@@H]3CCCN3)CC2)ccc1Nc1ncc(Cl)c(Nc2ccccc2P(C)(C)=O)n1
late apoptotic cells (H3122; annexin V-FITC/PI flow cytometry; 500 nM, 24 h): 2.68% and 2.19% and 2.22%

CNS(=O)(=O)Nc1nccc(Cc2c(C)c3ccc(Oc4ncccc4F)cc3oc2=O)c1F
IC50 (HT-144; cell viability; 7 days): 0.00382 µM

CCCCCCc1cccc([C@H](O)C[C@H](CO)NC(=O)CCCCCCCCCCBr)c1
total ceramide level (HeLa; CERT activity, HPLC-MS/MS lipidomics; 1 µM, 24 h, not cell-number normalised): 62300 pmol/sample and 57300 pmol/sample and 51600 pmol/sample

O=C(NCCCSc1ccc2c(/C=C/c3ccccn3)n[nH]c2c1)c1ccc(Cl)c(C(F)(F)F)c1
GI50 (Ba/F3 TEL-VEGFR3; cell growth, CCK-8): 0.93 µM

Cc1ccc(-n2cc(CSc3nc4ccccc4n3Cc3cn(-c4ccc(C)cc4)nn3)nn2)cc1
cytotoxicity (MDA-MB-231; MTT; 3.91 ppm): 39.9%

O=C(NCCSc1ccc2c(/C=C/c3ccccn3)n[nH]c2c1)Nc1ccc(F)c(F)c1
GI50 (Ba/F3 TEL-VEGFR2; cell growth, CCK-8): 0.15 µM

O=CCNCCOn1c(=O)n(OCCNCCO)c(=O)n(OCCNCCOn2c(=O)n(OCCNCCO)c(=O)n(OCCNCCO)c2=O)c1=O
viability (A549; cell growth or viability, MTT; 25 µg/mL, 48 h): 43.7%

Excerpt of the above:
COc1cccc(OC)c1-c1cc(C(=O)NC2(C(=O)O)C3CC4CC(C3)CC2C4)nn1-c1ccc(C(=O)NCCNC(=O)[C@H](CCCCNC(=O)[C@H](CC(C)C)NC(=O)C2OC2C(=O)O)NC(=O)CN2CCN(CC(=O)[O-])CCN(CC(=O)[O-])CCN(CC(=O)[O-])CC2)cc1C(C)C.[177Lu+3] (mixture of isomers)
surface-bound fraction (HT-29; concentration not given, 60 min; relative to: added activity): 1.26 ± 0.17%

O=C(Nc1nnc2c1c(-c1ccc(Cl)cc1)nc1sc(=Cc3ccco3)c(=O)n12)c1ccccc1 (mixture of isomers)
cell growth (KM12; SRB; 10 µM, NCI60 single-dose screen, colon cancer; relative to: untreated): 39.9%

C=CC(=O)N1[C@H](c2ccc3c(c2)OCO3)c2[nH]c3ccccc3c2C[C@@H]1C(=O)NC
neuron degeneration (rat DRG neurons; 0.004572 µM, 48 h, added: vincristine 40 nM): 79.9% and 82.3%
